Measurements gathered from unrelated publications.
Parts stem from different laboratories: compare values within a part only. Positions count from the first letter of the parent shown.

Study 1 — method: protein-binding microarray; form: double-stranded DNA, one strand shown; medium: in vitro; concentration: 250 nM; setting: 60-bp whole probe; added: salmon DNA 0.4 mg/ml; relative to: random background probes; direction: higher = stronger binding; measurement: log fluorescence; constant ends, left off below: GCCTAGCAC … GTCTTGATTCGCTTGACGCTGCTG
Target: Interferon regulatory factor 5, full length, phosphomimetic (IRF5, Homo sapiens, UniProt Q13568-2, residues 1-514, K96S/S451D/S453D/S456D/S462D)
Strand = TTAGGTATCGACATTCGGTTAGTGCTA; result = 3.6 z-score
Strand = GACGATTTCAGTTTCGAGAAGTGCTAG; result = 7.06 z-score
Strand = TTAGGTTTCGGGAGTGGGTTAGTGCTA; result = 5.87 z-score
Strand = TTAGAACTGCGACTGGATTAGTGCTAG; result = -0.0507 z-score
Strand = TCACATCTCAAGTAGCCTACTGTGCTA; result = 0.204 z-score
Strand = TCAGATGTGGGACTCACACTGTGCTAG; result = -0.633 z-score
Strand = TTAGGTCTCGGTTTCCGTTAGTGCTAG; result = 1.45 z-score
Strand = TTAGGTTTCGGTCTCGGTAAGTGCTAG; result = 10.5 z-score
Strand = GACGATATCAGTTTCAAGACGTGCTAG; result = 2.47 z-score
Strand = GACCATTTCAGACTGGAGACGTGCTAG; result = -0.0861 z-score
Strand = TACGATATCGGGTTTCGAGACGTGCTA; result = 3.54 z-score
Strand = TTAGATTTAAGTCTCGATTAGTGCTAG; result = 1.07 z-score
Strand = TCATTTTTTTTTTACTTACTGTGCTAG; result = 1.26 z-score
Strand = AAGACTTTGGTTTGTACACCGTGCTAG; result = -0.266 z-score
Strand = TCATATATGTGATTAAAACTGTGCTAG; result = 0.767 z-score
Strand = TACAATTTGCTTTAGTCATTGTGCTAG; result = 0.403 z-score
Strand = CATTATTTCAATGCAAGGTGGTGCTAG; result = 0.713 z-score
Strand = GACGGTTTCGGTCCCGGGACGTGCTAG; result = 9.31 z-score
Strand = TTAGATCTGGGGTTTCGATTAGTGCTA; result = 5.24 z-score
Strand = TTAGGACTGCTTTTCCCTTAGTGCTAG; result = 0.231 z-score
Strand = TTAGGTGTCGACTATCGGTTAGTGCTA; result = 6.4 z-score
Strand = TCATTTGTCACTCTCAGACTGTGCTAG; result = 0.397 z-score
Strand = TACGATCTCAGTTTCGAGACGTGCTAG; result = 4.65 z-score
Strand = GACGGTTTCGGTTTTGGGACGTGCTAG; result = 9.35 z-score
Strand = ATGCATTGTTATTTGTCAATGTGCTAG; result = 0.676 z-score

Study 2 — target: CCND1, cyclin fold, Cln2 fusion (human); method: yeast growth competition, sequencing; medium: yeast; setting: weak parent motif; relative to: not given; direction: higher = stronger binding; measurement: normalised enrichment score
Starting sequence: MICAL3 docking peptide (human); LQLRRQLSFSEDS
Variant = S8G; result = -0.294
Variant = D12R; result = -0.0699
Variant = R5V; result = 0.156
Variant = L7G; result = 0.0111
Variant = S10A; result = -0.115
Variant = L7M; result = 0.224
Variant = Q2M; result = 0.405
Variant = Q2V; result = 0.586
Variant = R4C; result = 1.33
Variant = S10P; result = 0.205
Variant = F9Y; result = -0.0265
Variant = R4K; result = 0.578
Variant = F9C; result = -0.0048
Variant = E11R; result = 0.128
Variant = R4T; result = 0.0474
Variant = L7T; result = -0.155
Variant = L3C; result = 1.19
Variant = Q6Y; result = 0.0552
Variant = S8M; result = -0.12
Variant = L7C; result = 0.0139
Variant = Q2F; result = 0.337
Variant = R4G; result = 0.342
Variant = S8I; result = 0.127
Variant = S10G; result = 0.698
Variant = D12L; result = 0.79

Study 3 — method: RNA Bind-n-Seq; form: RNA; medium: in vitro; concentration: 1 µM; setting: whole 134-nt RNA, ends assumed; added: 150 mM KCl; relative to: input library; direction: higher = stronger binding; measurement: log2 enrichment
Target: Ras GTPase-activating protein-binding protein 1, C-terminal RGG region (G3BP1, Homo sapiens, UniProt Q13283)
Sequence of UniProt Q13283 (whole entry, looked up): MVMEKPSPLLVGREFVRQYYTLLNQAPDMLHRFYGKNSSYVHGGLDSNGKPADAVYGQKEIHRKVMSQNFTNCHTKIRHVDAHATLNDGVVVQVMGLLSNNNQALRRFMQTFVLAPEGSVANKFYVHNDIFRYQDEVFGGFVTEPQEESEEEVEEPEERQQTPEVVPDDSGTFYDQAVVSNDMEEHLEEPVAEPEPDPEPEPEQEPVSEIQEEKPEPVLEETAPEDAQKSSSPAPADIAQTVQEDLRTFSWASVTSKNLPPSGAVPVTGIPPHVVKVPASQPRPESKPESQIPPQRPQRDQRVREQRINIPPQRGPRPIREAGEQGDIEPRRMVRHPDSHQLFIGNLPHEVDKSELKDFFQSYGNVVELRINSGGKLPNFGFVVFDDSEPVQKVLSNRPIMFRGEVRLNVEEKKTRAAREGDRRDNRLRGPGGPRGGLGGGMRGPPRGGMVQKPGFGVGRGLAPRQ
Constant ends, left off below: GGGAGUUCUACAGUCCGACGAUC … UGGAAUUCUCGGGUGUCAAGG
Strand = GUCCUGUGCUACACAUCGUAUGUACCGAAUCGGUUUUUUGGUUUUUUGGUUUUUUGGGGAAAGUAUUAUGUUACGCCGUUCGGAUCUGCA; result = -1.52
Strand = UCCUGUGCUACACAUCGUAUGUACCGAAUCGGGGUUUUUGGGGAAAGGGGUUUUUGGGGAAAGUAUUAUGUUACGCCGUUCGGAUCUGCA; result = 2.62
Strand = GCAGGAAGUAAAAACAAAUGGAAAUGCUACGGAUAGUGGCAGGGGUGGGGGUUGCUAAGGAAAGGGUGGGAUGGGAGUGGGUAAAGAGUU; result = 1.81
Strand = AGUCCUGUGCUACACAUCGUAUGUACCGAAUCGGCCCCCGGGCCCCCGGGCCCCCGGGAAAGUAUUAUGUUACGCCGUUCGGAUCUGCAC; result = -2.13
Strand = CACAGACAACACGCACCCACACAGACACAGAGGGAAGGGGUUGGGAUGGGGACAGGGUGGACAGCAGGGCGGGGUAGGACCCCAGCCCCU; result = -0.625
Strand = UUACUAGAAAAGGCAGAAGCCCGUGAACGUGAAAGAGAAAAAGAAGAGGCUCGGAAGAUGAAACGAAAAGAAUCUGCAUUUAAGAGUAUG; result = -2.29
Strand = UAACUUUAGAGGAGGAUCUGAUGGAUAUGGCAGUGGACGUGGAUUUGGGGAUGGCUAUAAUGGGUAUGGAGGAGGACCUGGCGGUGGCAA; result = -0.628
Strand = AGUCCUGUGCUACACAUCGUAUGUACCGAAUCGGGAAAAAAAGGGUUUGGGUUUGGGAAAGUAUUAUGUUACGCCGUUCGGAUCUGCACU; result = 0.83
Strand = UUCCUCAAGUCCUGUGCUACACAUCGUAUGUACCGAAUCGGUGGAGGUGGAAAGUAUUAUGUUACGCCGUUCGGAUCUGCACUUCCAGCA; result = -0.98
Strand = CUCAAGUCCUGUGCUACACAUCGUAUGUACCGAAUCGGGUUGGUUGGGGUUGGGAAAGUAUUAUGUUACGCCGUUCGGAUCUGCACUUCC; result = 0.421
Strand = GCAGGAAGUAAAAACAAAUGGAAAUGCUUCGGAUAGUGGCAGGGGUGGGGGUUGCUUAGGAAAGGGUGGGAUGGGAGUGGGUAAAGAGUU; result = 1.95
Strand = GUCCUGUGCUACACAUCGUAUGUACCGAAUCAAAUUUUUAAAUUUUUUUAAAUUUAAAAAAGUAUUAUGUUACGCCGUUCGGAUCUGCAC; result = -2.87
Strand = AGUCCUGUGCUACACAUCGUAUGUACCGAAUCGGAAAGGAAAAAAAGGAAAAAAAGGAAAGUAUUAUGUUACGCCGUUCGGAUCUGCACU; result = -1.99
Strand = UCCCGACAUCUGUGGCCCUGGCACCAAGAAGGUUCAUGUCAUCUUCAACUACAAGGGCAAGAACGUGCUGAUCAACAAGGACAUCCGUUG; result = -0.239

Study 4 — method: RNA Bind-n-Seq; form: RNA; medium: in vitro; concentration: 365 nM; relative to: no-protein control; direction: higher = stronger binding; measurement: RBNS enrichment (R)
Target: RNA binding protein fox-1 homolog 2, RRM domain, GST-SBP tag (RBFOX2, Homo sapiens, UniProt O43251-10, residues 100-194)
Setting: natural RNA segment, single round, ends assumed
Constant ends, left off below: GGGAGUUCUACAGUCCGACGAUC … UGGAAUUCUCGGGUGCCAA
Residues (chain): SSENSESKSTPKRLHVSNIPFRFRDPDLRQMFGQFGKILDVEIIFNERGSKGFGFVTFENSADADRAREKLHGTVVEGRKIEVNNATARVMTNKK
Strand = AGCAGAUGACUACUUUUCGAAGUAAUGCUGCUCCUUCCUAAAAGUCUGUUUUCAAUCCUGGUAAUAUUAGGGGCACUGCGGCACCUAAGAAGCCUUAAAUGAGAGCUAAU; result = 0.807
Strand = CACGGGCUGGAGGGGCUGCCCAGGGACCUUGGUCUCGAAGCCAUACGUGGUUGUCUGCUUUCCUAAGGACUCCCAUUUCCAGUAUUAAAGAGAGAAUCAUCAUCAAGGCA; result = 0.598
Strand = GAACCAUCUCUUCUGGGCAGUUUUGUUGAAAAUAAAGGUUUCUCUUUGAUUUCAAGAAUGACCAAAAUGGCCUCUAAAAGAUGUUAAUCAUCUCAAAUGACCUUUUGUCU; result = 0.98
Strand = UGCCUGCAAAGAAAUCUAUUUAACUGAAUCAGCCCAUAAUAUUUGAGGCACGAGGUUACUGUGAUUGAUAGGAAAGAUAAAAAUGAUGUCUGUUUUUGUAGACGAAUAAC; result = 0.339
Strand = UCUAUAAAUGUGUAAUGUGAUGAAGAAAGAGAUCUUUCUUUUUUAAUGAAAACAUUAAUGUGUUAAUACCCUGUAUGGAUAAUGCUUGACAUUUAGUGGUUUCCAAAAUA; result = 0.339
Strand = CUAAGCAAAUGUACCACCAAUGAGCCAGGUUCCUAGCCUUCCUUUUGGAAGCUCAGUUCUUGAGUUGUCAGAGGGCCUCAUUGCCGUCCUCCUCUGAGAGCAGUGAUGCA; result = 0.323
Strand = ACACGAGCUCUUGUGUUGAAAGUGUCCAGGCCGUAGAACUUCAUUGCUACUGACUUUACACAGUUUACAAGUUUCUCUUUGGACAUAUCUGGUAUUAUUACAGAAAUCUC; result = 0.446
Strand = GCAGGGUGUUAGCAAAGUUUUCCCAGUUAGUAGUGCCAGUUCUAGGCUGAAUGGGAGAGUCCUCCACAACUCCCUGUGUGCCUCAUGGAAAAUAAAGUUUUUUGCACCAU; result = 0.879
Strand = GCUGCAGAGAAAUCAGUCUUACCCAGCAAGGGGAAGGCACACACAAGUUUGCAGAAAGUGUCUCAGAUCGCGUUUCUGAUUGAGUGAUCCGAGCUGGACUCCUCCUGUAG; result = 0.948
Strand = GCUCUUGAGCAAGUUGGGACUUGGGCCGGGGCCUGGAAGAAUGAUUGGCUGGGAGGCCGCGGGAGGGAGGCCAGGAGGCCCGGACCAGUUGGGAGGAGUGAGCAGGCCCC; result = 1.31
Strand = CCUCACUCUCUUUCAUUUAGCUGCCAGUCAUUUUAUGAAAAUGAAGUGCUUCUAAGUAUUUCCUUAAGGUCUGUGAAGAGUAUUUGCCCUGCGUCUUCAUUUCCGUGUGU; result = 0.469
Strand = UUCCAAGCUUUGUGUGAAACUUGAUGACAUUGGGCCAGCAAAAUGCAAAGAAGACUAUAGUUUCAGGCAGAAAAUCACGUCCAAAGAAUUUGGCAUGGAUUAAACAACCU; result = 0.269

Excerpt of the above (study 2):
Variant = D12L; result = 0.79
Variant = L7G; result = 0.0111
Variant = F9C; result = -0.0048
Variant = L7M; result = 0.224
Variant = L7T; result = -0.155
Variant = Q2M; result = 0.405
Variant = R4C; result = 1.33
Variant = Q2V; result = 0.586
Variant = E11R; result = 0.128
